Published values pooled from the literature.
Lines come from different studies, so protocols differ. ± gives the spread as reported. ≈ marks a conversion by molar mass, not a printed value.

The chains behind the UniProt entries cited, without tags or fusion partners.
UniProt Q8NG66, whole entry: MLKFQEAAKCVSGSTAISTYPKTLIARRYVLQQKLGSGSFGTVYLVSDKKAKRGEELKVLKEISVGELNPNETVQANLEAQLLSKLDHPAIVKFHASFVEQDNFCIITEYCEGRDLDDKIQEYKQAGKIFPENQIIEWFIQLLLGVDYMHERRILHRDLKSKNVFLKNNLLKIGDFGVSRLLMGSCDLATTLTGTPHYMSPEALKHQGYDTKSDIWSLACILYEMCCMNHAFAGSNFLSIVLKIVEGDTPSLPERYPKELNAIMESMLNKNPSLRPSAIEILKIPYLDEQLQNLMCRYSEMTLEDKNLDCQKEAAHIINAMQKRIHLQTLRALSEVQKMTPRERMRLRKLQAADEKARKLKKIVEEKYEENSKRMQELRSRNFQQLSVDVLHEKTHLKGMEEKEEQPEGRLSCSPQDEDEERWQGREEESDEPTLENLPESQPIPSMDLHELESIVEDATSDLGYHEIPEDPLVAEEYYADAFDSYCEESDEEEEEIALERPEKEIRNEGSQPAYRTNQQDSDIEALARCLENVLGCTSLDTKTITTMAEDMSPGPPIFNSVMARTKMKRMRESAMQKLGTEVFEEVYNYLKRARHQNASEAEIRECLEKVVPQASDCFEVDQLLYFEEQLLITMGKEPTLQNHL
UniProt P16234, whole entry, looked up: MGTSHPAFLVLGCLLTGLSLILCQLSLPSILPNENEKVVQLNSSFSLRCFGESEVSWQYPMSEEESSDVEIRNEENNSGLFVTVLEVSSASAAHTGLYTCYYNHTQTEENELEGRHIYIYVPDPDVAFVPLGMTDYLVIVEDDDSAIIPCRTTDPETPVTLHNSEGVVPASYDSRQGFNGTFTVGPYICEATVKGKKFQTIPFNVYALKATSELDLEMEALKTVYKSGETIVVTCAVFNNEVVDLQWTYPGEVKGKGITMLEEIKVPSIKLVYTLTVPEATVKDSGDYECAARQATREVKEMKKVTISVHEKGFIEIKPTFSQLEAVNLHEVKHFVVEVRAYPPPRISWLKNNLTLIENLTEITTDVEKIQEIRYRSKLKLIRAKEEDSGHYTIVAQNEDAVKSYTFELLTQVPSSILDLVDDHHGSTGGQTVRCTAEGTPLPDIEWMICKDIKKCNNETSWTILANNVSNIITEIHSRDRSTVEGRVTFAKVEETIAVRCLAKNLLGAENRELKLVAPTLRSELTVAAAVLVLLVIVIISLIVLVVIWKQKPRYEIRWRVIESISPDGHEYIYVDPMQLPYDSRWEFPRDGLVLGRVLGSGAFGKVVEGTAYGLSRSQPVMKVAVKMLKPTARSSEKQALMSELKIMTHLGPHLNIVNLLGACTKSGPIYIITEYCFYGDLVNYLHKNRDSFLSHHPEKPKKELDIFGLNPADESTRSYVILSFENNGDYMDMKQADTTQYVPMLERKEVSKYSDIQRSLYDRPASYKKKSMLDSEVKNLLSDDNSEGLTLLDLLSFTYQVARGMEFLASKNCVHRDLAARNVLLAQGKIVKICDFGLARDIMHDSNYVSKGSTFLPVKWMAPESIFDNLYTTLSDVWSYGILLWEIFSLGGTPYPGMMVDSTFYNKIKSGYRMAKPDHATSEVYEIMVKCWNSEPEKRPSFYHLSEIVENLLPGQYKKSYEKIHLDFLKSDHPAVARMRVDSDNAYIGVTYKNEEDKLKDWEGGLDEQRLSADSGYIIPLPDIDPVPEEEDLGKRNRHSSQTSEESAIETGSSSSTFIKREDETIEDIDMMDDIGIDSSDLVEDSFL

CCc1nc(N)nc(N)c1C#CCc1cc(OC)cc(-c2ccc(C(=O)O)cc2)c1  MIC (Mycobacterium tuberculosis; PAS-resistant folC E153G): 4 µg/mL
O=c1oc(-c2ccccn2)ns1  reduction in viable count (Mycobacterium tuberculosis; Erdman; 50 µM, 4 days, pH 7.4, nitric oxide non-replicating state, together with: DETA-NO): 1.8 log CFU
Cn1cc([N+](=O)[O-])nc1COc1ccc2nc3ccc(=O)cc-3oc2c1  MIC90 (Mycobacterium tuberculosis; mc2 6206 bedaquiline-resistant MmpL5 regulator mutant; 7 days): > 256 µM
CCc1nc(N)nc(N)c1C#C[C@@H](C)c1cc(OC)cc(-c2ccc(C(=O)O)cc2)c1  MIC (Mycobacterium tuberculosis; broth microdilution; Erdman ATCC 35801): 0.03 µg/mL
COCCOc1ccc2nc3ccc(=O)c(Br)c-3oc2c1  MIC90 (Mycobacterium tuberculosis; mc2 6206 clofazimine-resistant fbiC mutant; 7 days): 20 µM (≈ 7 µg/mL)
CS(=O)(=O)NC(=O)NCc1cn(-c2ccc(Cl)cc2)nc1-c1ccncc1  MIC (Mycobacterium tuberculosis; EthA C253R mutant): 2 µM
COc1c(C)c(-c2ccc(Cc3ccccc3)cc2)nc2ccccc12  IC50 (Mycobacterium tuberculosis; growth, MABA; H37Rv; aerobic): 2890 ± 110 nM
CC(C)Cc1cc(O)c(-c2cccc(Cl)c2)c(=O)[nH]1  MIC50 (Mycobacterium tuberculosis; H37Rv): 2.67 µM (≈ 0.742 µg/mL)
O=c1ccc2nc3ccc(O)cc3oc-2c1  MIC90 (Mycobacterium tuberculosis; mc2 6206 bedaquiline-resistant MmpL5 regulator mutant; 7 days): 235 µM (≈ 50.1 µg/mL)
Cc1ccc(-c2nsc(=O)o2)s1  reduction in viable count (Mycobacterium tuberculosis; Erdman; 50 µM, 4 days, pH 7.4, nitric oxide non-replicating state, together with: DETA-NO): 2 log CFU
NNC(=O)c1ccncc1  MIC (Mycobacterium tuberculosis; EthA C253R mutant): 7.8 µM
O=c1ccc2nc3ccc(OCC4(CO)COC4)cc3oc-2c1  MIC90 (Mycobacterium tuberculosis; mc2 6206 PA-824-resistant ddn mutant; 7 days): > 256 µM
CCN1CCN(Cc2ccc(NC(=O)c3ccc(C)c(/C=C/c4cnc5[nH]ccc5c4OC)c3)cc2C(F)(F)F)CC1  log2 fold change (NEK11 (Homo sapiens, UniProt Q8NG66); inhibitor; 5 µM; reference: no inhibitor): 0.53
O=c1ccc2nc3ccc(OCCO)cc3oc-2c1  MIC90 (Mycobacterium tuberculosis; mc2 6206 bedaquiline-resistant MmpL5 regulator mutant; 7 days): > 256 µM
CC#C/C(=N\OC[C@H]1COCCN1)c1ccc2ncnc(Nc3ccc(OCc4cccc(F)c4)c(Cl)c3)c2c1  inhibition (PDGFRA (Homo sapiens, UniProt P16234); kinase activity; 10 µM): -22%
O=c1[nH]c(CC2CCCCC2)cc(O)c1-c1ccccc1  MIC99 (Mycobacterium tuberculosis; H37Rv): 0.31 µM (≈ 0.0878 µg/mL)
CS(=O)(=O)NC(=O)CCc1cn(-c2ccc(Br)cc2)nc1-c1ccc(Cl)cc1  MIC (Mycobacterium tuberculosis; EthA C253R mutant): 8 µM
Cc1cccc(-c2nsc(=O)o2)c1  reduction in viable count (Mycobacterium tuberculosis; Erdman; 50 µM, 4 days, pH 7.4, nitric oxide non-replicating state, together with: DETA-NO): 1.7 log CFU
CC1(C)CCC(Cc2cc(O)c(-c3ccccc3)c(=O)[nH]2)CC1  MIC50 (Mycobacterium tuberculosis; inhA D148E resistant mutant): > 5 µM
COC(=O)COc1ccc2nc3ccc(=O)cc-3oc2c1  MIC90 (Mycobacterium tuberculosis; mc2 6206 PA-824-resistant ddn mutant; 7 days): 74 µM (≈ 21.1 µg/mL)
CS(=O)(=O)NC(=O)NCc1cc(-c2ccc(Br)cc2)oc1-c1ccncc1  MIC (Mycobacterium tuberculosis; MmpL3 G758A mutant): 0.5 µM
